Measurements gathered from unrelated publications.
A part holds a random share of what one study measured.
Chain of UniProt Q8H174 (whole entry, looked up): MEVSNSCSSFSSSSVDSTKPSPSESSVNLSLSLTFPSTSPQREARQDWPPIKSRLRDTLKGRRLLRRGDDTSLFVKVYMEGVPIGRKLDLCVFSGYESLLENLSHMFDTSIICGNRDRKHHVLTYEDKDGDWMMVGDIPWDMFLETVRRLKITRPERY
Chain of UniProt P51957 (whole entry, looked up): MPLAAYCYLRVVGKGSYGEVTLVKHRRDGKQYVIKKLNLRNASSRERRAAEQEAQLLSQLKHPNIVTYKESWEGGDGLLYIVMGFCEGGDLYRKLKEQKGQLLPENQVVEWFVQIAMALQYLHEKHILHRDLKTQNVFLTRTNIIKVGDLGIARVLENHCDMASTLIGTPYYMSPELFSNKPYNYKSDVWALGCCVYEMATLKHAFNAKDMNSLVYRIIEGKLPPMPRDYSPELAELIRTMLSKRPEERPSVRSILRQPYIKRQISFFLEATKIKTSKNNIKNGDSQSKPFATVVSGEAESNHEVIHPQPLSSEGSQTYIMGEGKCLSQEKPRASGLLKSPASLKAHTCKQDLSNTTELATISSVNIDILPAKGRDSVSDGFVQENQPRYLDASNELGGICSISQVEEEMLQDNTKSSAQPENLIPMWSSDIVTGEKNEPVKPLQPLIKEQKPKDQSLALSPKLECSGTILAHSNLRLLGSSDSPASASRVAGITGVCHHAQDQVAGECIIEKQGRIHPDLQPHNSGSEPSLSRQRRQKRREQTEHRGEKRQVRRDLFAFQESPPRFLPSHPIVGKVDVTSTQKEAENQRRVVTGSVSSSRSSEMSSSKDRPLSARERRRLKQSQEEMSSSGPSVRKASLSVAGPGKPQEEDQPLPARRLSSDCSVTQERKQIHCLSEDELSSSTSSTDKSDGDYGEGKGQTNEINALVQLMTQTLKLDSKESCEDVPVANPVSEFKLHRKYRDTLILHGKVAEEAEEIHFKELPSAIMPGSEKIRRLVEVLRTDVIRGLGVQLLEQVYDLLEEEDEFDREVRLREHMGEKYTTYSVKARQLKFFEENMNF
Chain of UniProt Q9ZSY8 (whole entry, looked up): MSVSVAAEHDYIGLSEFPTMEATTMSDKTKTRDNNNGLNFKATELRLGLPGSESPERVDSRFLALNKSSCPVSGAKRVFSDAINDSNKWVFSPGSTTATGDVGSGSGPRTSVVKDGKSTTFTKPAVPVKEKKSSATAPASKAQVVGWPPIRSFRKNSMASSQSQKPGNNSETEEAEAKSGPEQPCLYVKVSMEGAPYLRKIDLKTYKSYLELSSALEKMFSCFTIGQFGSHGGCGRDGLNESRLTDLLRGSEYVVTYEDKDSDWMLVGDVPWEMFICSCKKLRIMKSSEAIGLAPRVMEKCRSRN
Chain of UniProt Q9C5W9 (whole entry, looked up): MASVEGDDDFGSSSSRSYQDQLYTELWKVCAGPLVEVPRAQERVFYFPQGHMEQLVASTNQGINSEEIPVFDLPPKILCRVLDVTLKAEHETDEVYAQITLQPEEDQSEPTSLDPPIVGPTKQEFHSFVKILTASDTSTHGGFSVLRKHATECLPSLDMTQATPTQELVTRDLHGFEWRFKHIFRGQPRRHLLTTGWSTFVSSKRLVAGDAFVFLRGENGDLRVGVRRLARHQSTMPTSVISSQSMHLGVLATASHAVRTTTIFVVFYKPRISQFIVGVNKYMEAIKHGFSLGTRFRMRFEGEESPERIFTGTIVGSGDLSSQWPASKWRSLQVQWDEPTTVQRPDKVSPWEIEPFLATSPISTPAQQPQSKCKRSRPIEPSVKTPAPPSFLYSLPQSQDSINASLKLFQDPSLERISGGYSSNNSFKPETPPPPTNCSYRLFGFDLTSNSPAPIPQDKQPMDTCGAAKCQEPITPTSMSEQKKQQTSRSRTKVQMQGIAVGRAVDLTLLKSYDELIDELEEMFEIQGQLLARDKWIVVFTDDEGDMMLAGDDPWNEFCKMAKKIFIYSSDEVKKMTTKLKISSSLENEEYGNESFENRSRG
Chain of UniProt P33078 (whole entry, looked up): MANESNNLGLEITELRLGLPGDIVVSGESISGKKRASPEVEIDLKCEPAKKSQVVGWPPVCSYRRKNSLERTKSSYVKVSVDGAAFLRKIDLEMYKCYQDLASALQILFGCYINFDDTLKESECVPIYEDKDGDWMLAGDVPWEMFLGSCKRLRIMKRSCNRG
Chain of UniProt Q8TDX7 (whole entry, looked up): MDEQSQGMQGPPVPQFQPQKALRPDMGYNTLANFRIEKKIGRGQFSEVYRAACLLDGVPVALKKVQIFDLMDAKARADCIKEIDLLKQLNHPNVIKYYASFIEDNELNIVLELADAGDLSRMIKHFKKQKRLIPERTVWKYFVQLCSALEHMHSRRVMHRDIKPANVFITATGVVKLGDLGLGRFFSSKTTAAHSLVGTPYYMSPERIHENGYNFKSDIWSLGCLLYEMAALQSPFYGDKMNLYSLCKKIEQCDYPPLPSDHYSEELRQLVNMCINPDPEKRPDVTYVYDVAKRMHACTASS
Chain of UniProt Q16513 (whole entry, looked up): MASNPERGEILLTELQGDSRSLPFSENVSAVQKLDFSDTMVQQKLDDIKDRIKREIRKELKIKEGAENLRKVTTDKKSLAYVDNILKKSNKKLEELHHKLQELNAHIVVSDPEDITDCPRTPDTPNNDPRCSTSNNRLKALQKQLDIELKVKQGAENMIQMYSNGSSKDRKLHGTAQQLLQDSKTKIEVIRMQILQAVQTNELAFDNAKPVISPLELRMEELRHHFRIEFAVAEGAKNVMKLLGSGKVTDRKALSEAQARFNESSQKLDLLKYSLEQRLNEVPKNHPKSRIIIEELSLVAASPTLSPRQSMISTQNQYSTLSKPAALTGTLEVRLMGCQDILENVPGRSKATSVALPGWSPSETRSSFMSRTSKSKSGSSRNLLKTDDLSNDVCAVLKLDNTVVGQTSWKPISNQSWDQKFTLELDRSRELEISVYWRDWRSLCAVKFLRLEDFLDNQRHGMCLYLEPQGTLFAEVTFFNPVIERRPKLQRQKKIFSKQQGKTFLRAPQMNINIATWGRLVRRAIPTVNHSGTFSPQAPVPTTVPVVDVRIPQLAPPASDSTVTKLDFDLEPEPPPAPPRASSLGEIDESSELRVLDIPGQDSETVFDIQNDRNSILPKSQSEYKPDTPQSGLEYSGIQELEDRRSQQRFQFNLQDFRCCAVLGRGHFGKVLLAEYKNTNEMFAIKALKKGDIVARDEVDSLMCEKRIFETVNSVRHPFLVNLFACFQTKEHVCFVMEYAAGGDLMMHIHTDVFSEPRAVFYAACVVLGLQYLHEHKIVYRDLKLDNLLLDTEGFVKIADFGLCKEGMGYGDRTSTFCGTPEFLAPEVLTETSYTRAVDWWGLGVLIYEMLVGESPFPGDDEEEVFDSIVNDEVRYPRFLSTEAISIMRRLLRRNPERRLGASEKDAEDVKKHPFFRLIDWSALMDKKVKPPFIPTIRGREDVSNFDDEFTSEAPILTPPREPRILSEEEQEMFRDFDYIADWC

Block 1
Sequence: B1 (IAA2)
Method: two-hybrid
Direction: higher = firmer interaction
T1: itself; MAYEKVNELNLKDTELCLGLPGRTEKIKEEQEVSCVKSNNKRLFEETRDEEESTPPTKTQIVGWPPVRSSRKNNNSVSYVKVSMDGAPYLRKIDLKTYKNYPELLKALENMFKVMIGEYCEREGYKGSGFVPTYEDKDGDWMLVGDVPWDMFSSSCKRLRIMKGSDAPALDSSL
B1: IAA2 (Arabidopsis thaliana, UniProt P49678); chain MAYEKVNELNLKDTELCLGLPGRTEKIKEEQEVSCVKSNNKRLFEETRDEEESTPPTKTQIVGWPPVRSSRKNNNSVSYVKVSMDGAPYLRKIDLKTYKNYPELLKALENMFKVMIGEYCEREGYKGSGFVPTYEDKDGDWMLVGDVPWDMFSSSCKRLRIMKGSDAPALDSSL
partner | scale | positive tests
T1, itself | relative to: out of 4 tests | 2
IAA27 (Arabidopsis thaliana, UniProt Q9ZSY8) | relative to: out of 4 tests | 4
ARF18 482-602 (Arabidopsis thaliana, UniProt Q9C5W9) | relative to: out of 4 tests | 0
ETT (Arabidopsis thaliana, UniProt O23661) | relative to: out of 4 tests | 0
IAA5 (Arabidopsis thaliana, UniProt P33078) | relative to: out of 4 tests | 2
IAA31 (Arabidopsis thaliana, UniProt Q8H174) | relative to: out of 2 tests | 0

Block 2
Target: Histone acetyltransferase KAT6A, both winged helices, GST fusion (KAT6A, Homo sapiens, UniProt Q92794, residues 1-181)
Method: protein binding microarray
Molecule type: double-stranded DNA, one strand shown
Matrix: in vitro
Tested at: not given
Notes: 8-mer, flanks averaged, mean of 2 arrays, mostly near background
Relative to: not given
Direction: higher = stronger binding
Target sequence (chain): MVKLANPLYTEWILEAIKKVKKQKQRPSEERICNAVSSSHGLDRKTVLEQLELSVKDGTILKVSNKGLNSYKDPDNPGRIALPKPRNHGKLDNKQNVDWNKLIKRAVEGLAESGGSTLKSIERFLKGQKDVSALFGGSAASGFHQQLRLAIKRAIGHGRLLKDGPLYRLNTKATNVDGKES
Sequence | E-score
ACAAGGTC | -0.163
CGTCGTTC | 0.189
CGCTTAAG | 0.214
CGGCGACA | 0.254
CCCTCCAG | -0.0637
GAATCGTC | 0.0126
ACACGAGC | -0.0191
TGTATAAA | -0.0551

Block 3
Target: Microphthalmia-associated transcription factor, full length (MITF, Homo sapiens, UniProt O75030-10, residues 1-413)
Method: protein-binding microarray
Molecule type: hairpin DNA
Matrix: in vitro
Tested at: not given
Notes: whole hairpin DNA, median over replicate spots
Relative to: not given
Direction: higher = stronger binding
Sequence | median fluorescence
GAGGCCCAGCACGTGCTGCCTCCTGGCAGCACGTGCTGGGCCTCACACTC | 21800 a.u.
GAGGCCTAGCACGTGCTGCCTCCTGGCAGCACGTGCTAGGCCTCACACTC (5mC at 12) | 11700 a.u.
GAGGCCTAGCCGGTGCTGCCTCCTGGCAGCACCGGCTAGGCCTCACACTC | 5530 a.u.
CACTTACGACGTGATTTTGGTCCTCCAAAATCACGTCGTAAGTGACACTC (5mC at 37) | 6080 a.u.
GAGGCCTAGCACGTGGTGCCTCCTGGCACCACGTGCTAGGCCTCACACTC | 23300 a.u.
CACTTAGCACGTGCTTTTGGTCCTCCAAAAGCACGTGCTAAGTGACACTC | 23200 a.u.
CACTTACGACGTGATTTTGGTCCTCCAAAATCACGTCGTAAGTGACACTC (5mC at 7) | 5900 a.u.
CACTTAGCACGTGATTTTGGTCCTCCAAAATCACGTGCTAAGTGACACTC (5mC at 10 34) | 9520 a.u.

Block 4
SMILES: CN([C@@H]1CCc2c(CC(=O)O)c3ccccc3n2C1)S(=O)(=O)c1ccc(F)cc1
Tested at: 1 µM
target | assay | remaining binding [%]
Myosin-IIIb (MYO3B, Homo sapiens, UniProt Q8WXR4) | binding, competition with immobilised ligand | 100
NEK4 (Homo sapiens, UniProt P51957) | cell-free assay, competition with immobilised ligand | 100
Myosin-IIIa (MYO3A, Homo sapiens, UniProt Q8NEV4) | binding, competition with immobilised ligand | 100
FLT3 (Homo sapiens, UniProt P36888) | cell-free assay, competition with immobilised ligand | 100
LYN (Homo sapiens, UniProt P07948) | cell-free assay, competition with immobilised ligand | 100
SIK1 (Homo sapiens, UniProt P57059) | competition binding | 71
EPHA1 (Homo sapiens, UniProt P21709) | cell-free assay, competition with immobilised ligand | 100
NEK7 (Homo sapiens, UniProt Q8TDX7) | cell-free assay, competition with immobilised ligand | 100
PKN2 (Homo sapiens, UniProt Q16513) | cell-free assay, competition with immobilised ligand | 100

Block 5
Target: Dual specificity protein kinase CLK4 (CLK4, Homo sapiens, UniProt Q9HAZ1)
Chain of UniProt Q9HAZ1 (whole entry, looked up): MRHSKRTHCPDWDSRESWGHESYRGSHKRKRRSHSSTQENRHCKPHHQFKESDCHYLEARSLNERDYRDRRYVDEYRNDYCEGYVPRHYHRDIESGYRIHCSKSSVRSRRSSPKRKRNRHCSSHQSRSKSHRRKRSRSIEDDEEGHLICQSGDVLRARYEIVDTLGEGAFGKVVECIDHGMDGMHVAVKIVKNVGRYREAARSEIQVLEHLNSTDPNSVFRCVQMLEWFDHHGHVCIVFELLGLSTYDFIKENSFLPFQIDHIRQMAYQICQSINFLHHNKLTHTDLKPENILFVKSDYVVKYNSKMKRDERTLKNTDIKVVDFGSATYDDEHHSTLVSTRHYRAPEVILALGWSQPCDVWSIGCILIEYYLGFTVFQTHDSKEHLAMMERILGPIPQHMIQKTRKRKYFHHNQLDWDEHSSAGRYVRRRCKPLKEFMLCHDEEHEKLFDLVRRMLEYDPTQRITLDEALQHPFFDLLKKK
Read-out: enzyme activity
Action: inhibitor
Tested at: 0.5 µM
Relative to: control
Compound | remaining activity [%]
Nc1[nH]nc2nc3ccccc3nc12 | 86.9
Cc1cccc(-c2[nH]c(C(C)(C)C)nc2-c2ccc3c(c2)OCO3)n1 | 95.8
CO[C@H]1C[C@@H]2CC[C@@H](C)[C@@](O)(O2)C(=O)C(=O)N2CCCC[C@H]2C(=O)O[C@H]([C@H](C)C[C@@H]2CC[C@@H](O)[C@H](OC)C2)CC(=O)[C@H](C)/C=C(\C)[C@@H](O)[C@@H](OC)C(=O)[C@H](C)C[C@H](C)/C=C/C=C/C=C/1C | 116
COc1cc2ncnc(Nc3ccc(Oc4ccccc4)cc3)c2cc1OC | 122
Cn1c2ccccc2c2c3c(c4c5ccccc5n(CCC#N)c4c21)CNC3=O | 66.2
COc1ccc(OC)c2c(=S)c3ccccc3[nH]c12 | 104
COc1cc2ncnc(Nc3ccc(F)c(Cl)c3)c2cc1OCCCN1CCOCC1 | 107
COc1ccc(CNC(=O)Nc2ncc([N+](=O)[O-])s2)cc1 | 92.8
O=C(Nc1cccc(Nc2cc(Nc3cccc(C(F)(F)F)c3)ncn2)c1)C1CC1 | 97.3
CC(C)[C@H](CO)Nc1nc(Nc2cc(N)cc(Cl)c2)c2ncn(C(C)C)c2n1 | 16.5
NCCNc1ncc(C(N)=O)c(Nc2cccc(C(F)(F)F)c2)n1 | 101
N#CC(C#N)=C(N)/C(C#N)=C/c1ccc(O)cc1 | 101
O=C(CCCc1ccc(-c2ccccc2F)cc1)Nc1ccc(O)cc1 | 103
OCC(O)CCON=C1C(c2c(O)[nH]c3ccccc23)=Nc2ccccc21 (centres unmarked) | 6.19
Cc1ccc(Nc2nccc(N(C)c3ccc4c(C)n(C)nc4c3)n2)cc1S(N)(=O)=O | 91.7
O=C1NC(=O)C(c2cn(CCCn3ccnc3)c3ccccc23)=C1Nc1ccccc1 | 38.9
CN(C)c1ccc(C=C2C(=O)Nc3ccccc32)cc1 | 94.1
CCOC(=O)c1c(C)[nH]c(/C=C2\C(=O)Nc3ccccc32)c1C | 94.3
COc1cc2nccc(Oc3ccc(NC(=S)NC(=O)c4ccccc4C)cc3)c2cc1OC | 87.8
O=C(O)c1ccc2c3c1cccc3c(=O)n1c3ccccc3nc21 | 82.8
Nc1ncnc2n[nH]c(Nc3ccc(F)cc3)c12 | 88.7
Cc1nc(-c2ccccc2)c(-c2ccncc2)o1 | 121
C#Cc1cccc(Nc2ncnc3cc(OCCOC)c(OCCOC)cc23)c1 | 101
O=S(=O)(c1cccc2cnccc12)N1CCCNCC1 | 97.1
O=C1NC(=O)C(c2cn(CCCO)c3ncccc23)=C1c1cnccn1 | 100

Repeated from above (block 4):
target | assay | remaining binding [%]
NEK4 (Homo sapiens, UniProt P51957) | cell-free assay, competition with immobilised ligand | 100
SIK1 (Homo sapiens, UniProt P57059) | competition binding | 71
FLT3 (Homo sapiens, UniProt P36888) | cell-free assay, competition with immobilised ligand | 100
PKN2 (Homo sapiens, UniProt Q16513) | cell-free assay, competition with immobilised ligand | 100
Myosin-IIIa (MYO3A, Homo sapiens, UniProt Q8NEV4) | binding, competition with immobilised ligand | 100
NEK7 (Homo sapiens, UniProt Q8TDX7) | cell-free assay, competition with immobilised ligand | 100
Myosin-IIIb (MYO3B, Homo sapiens, UniProt Q8WXR4) | binding, competition with immobilised ligand | 100
LYN (Homo sapiens, UniProt P07948) | cell-free assay, competition with immobilised ligand | 100
EPHA1 (Homo sapiens, UniProt P21709) | cell-free assay, competition with immobilised ligand | 100
